# Measurements from different studies.
# Parts stem from different laboratories: compare values within a part only. Changes are numbered by the printed parent chain.

# Sample 1 — target: CCNE1, cyclin fold, Cln2 fusion (human); technique: yeast growth competition, sequencing; medium: yeast; setting: strong parent motif; relative to: not given; direction: higher = stronger binding
# Starting sequence: BRCA2 docking peptide (human); PSIKRNLLNEFDR; partner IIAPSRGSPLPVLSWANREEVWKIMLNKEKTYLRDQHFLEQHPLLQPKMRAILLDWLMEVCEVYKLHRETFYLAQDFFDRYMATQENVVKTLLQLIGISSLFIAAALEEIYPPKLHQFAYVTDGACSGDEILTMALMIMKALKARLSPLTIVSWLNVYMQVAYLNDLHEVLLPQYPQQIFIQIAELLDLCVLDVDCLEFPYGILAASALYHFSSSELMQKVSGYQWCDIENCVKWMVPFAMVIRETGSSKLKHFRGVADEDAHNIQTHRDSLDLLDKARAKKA
Substitution,normalised enrichment score
PSIKRTLLNEFDR [N6T],0.716
PSMKRNLLNEFDR [I3M],0.51
PSIKHNLLNEFDR [R5H],-0.566
KSIKRNLLNEFDR [P1K],2.48
PSIKRNLHNEFDR [L8H],0.369
PSIKRNLLNEIDR [F11I],1.74
PSIKRNLLNEFIR [D12I],-0.344
PSIKRNLLNNFDR [E10N],0.831
PPIKRNLLNEFDR [S2P],1.18
PSIKENLLNEFDR [R5E],-0.485
PSIKANLLNEFDR [R5A],0.125
PSIKANALNEFDR [R5A L7A],-0.011
PSHKRNLLNEFDR [I3H],3.9
DSIKRNLLNEFDR [P1D],1.76
PSIKNNLLNEFDR [R5N],-0.224
PSIKRNLKNEFDR [L8K],0.071
PSIKRNLLNEFDP [R13P],0.601
PSIKRHLLNEFDR [N6H],1.5
PSIKRNLLNIFDR [E10I],1.23

# Sample 2 — technique: competition protein-binding microarray; form: double-stranded DNA, one strand shown; medium: in vitro; concentration: 2 µM; added: Pho4 competitor, 0.05 µM; direction: higher = stronger binding; all sequences stand within: … GTCTTGATTCGCTTGACGCTGCTG
# Target: Centromere-binding protein 1, full length, His-tagged (CBF1, Saccharomyces cerevisiae, UniProt P17106, residues 1-351)
# UniProt P17106, sequence (whole entry, looked up): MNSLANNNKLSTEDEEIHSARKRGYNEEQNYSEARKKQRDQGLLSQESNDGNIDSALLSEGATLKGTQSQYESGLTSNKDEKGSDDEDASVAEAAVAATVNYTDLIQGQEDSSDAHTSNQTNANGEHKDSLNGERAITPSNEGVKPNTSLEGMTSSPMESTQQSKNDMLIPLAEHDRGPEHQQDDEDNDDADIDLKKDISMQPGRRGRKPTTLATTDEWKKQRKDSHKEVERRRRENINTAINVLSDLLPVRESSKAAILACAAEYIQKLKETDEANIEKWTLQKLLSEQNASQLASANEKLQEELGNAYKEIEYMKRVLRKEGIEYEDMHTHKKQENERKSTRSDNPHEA
# Setting: whole 60-bp probe, lowest competitor level
Strand,fluorescence intensity
CATCTTCTTACATCGCACGTGATGGTAAACTAGTAA,4960 a.u.
GTTTGCAGCTTACTTCACGTGTGGATGGAAAATTGA,529 a.u.
AGAGACAATTGTTGCCTCGTGGCCGGGCTATTTACA,106 a.u.
TTGCATAGTCAGTGTGGCGTGCAAACTCCACAGAAT,80.1 a.u.
CAATCTGGTGGGGGCACCGTGAATATCACCGTCGTC,113 a.u.
CTTCTGTAAATTTGCTACGTGGGTGGACGCGCCCCG,93.1 a.u.
GATAGTAAACTCTGTCATGTTAATCGTTTGGATTTG,77.9 a.u.
CTTTCCCGATCTTGATCGGTGGGTGTAGCACATTTG,53.6 a.u.
TAGTAATGTGCAAGTGATGTGGCGAGATGGTCCTTT,67.9 a.u.
GTCTCTGCTTTTCCACACGTGGAAGTTCACCAAGAA,434 a.u.
GTCTTGTCTCATTGAATCGTGGGTGTCCCCACTTCA,80.1 a.u.
CGGCTGGGTCGGGCCCACGTGGACCCGGCGGCAAGC,437 a.u.
GGAGGGCAGTAGTTCCATGTGCTTCTCAGAAGAGCT,84 a.u.
TGGTTCACAGCTAACCTTGTGACAGTTGCCTCGCTG,73.1 a.u.
CGGGGTTAAGTTTGTGCTGTGGGTGGCTTGCAGCAG,56.7 a.u.
AAGTTGCTTCTTTGCCACGTGTTCCATTGAAGATTG,1890 a.u.
AACTGCCAATACCGTCACGTTATGGAAGGTGAAGTG,384 a.u.
AATGTCGACCTTTTGGACGTGGGTACATGGACGAGC,55.6 a.u.
AGGTGCTGCAACAAAAGCAAGTCCCACTGGACCTTT,59.5 a.u.
TGCGCAACAACTTGTCGGGTGGGTGTATGTCTAGAA,98.8 a.u.
CACTTTTTAAACCATCACGGCCTCTGACGTAATCGG,81.8 a.u.
ATCCAGAACCCGTATCGCGTGCAAACAAAGAGATTT,113 a.u.
TCAGTATAGCAGCGACGCGTGGGTATCAGGAAGAAT,75.5 a.u.
TCTATAATAACCTCCCATGTGAAAATACCAACCTCT,117 a.u.
TGGGTCCACTTGAAATGCGTGCCGATGAAACGCATT,74.9 a.u.

# Sample 3 — technique: DHFR PCA, deep sequencing; medium: yeast; added: (+)-ABA 200 µM; relative to: wild-type fitted maximum; direction: higher = stronger binding
# Target: ABI1, truncated, D143A, DHFR fusion (Arabidopsis thaliana)
# Setting: methotrexate growth selection, single substitutions
# Starting sequence: PYL1, truncated, DHFR fusion (Arabidopsis thaliana); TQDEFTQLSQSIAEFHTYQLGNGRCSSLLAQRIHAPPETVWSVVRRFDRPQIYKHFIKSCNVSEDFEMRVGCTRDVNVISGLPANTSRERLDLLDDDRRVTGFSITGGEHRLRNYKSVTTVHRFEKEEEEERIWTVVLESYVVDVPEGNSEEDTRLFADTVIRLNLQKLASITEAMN
Substitution,relative binding score [%]
R113C,97.8
P83G,73
N61W,97.8
V137C,70
E129G,112
Q31N,58
E125P,106
E38V,67.2
V78I,109
H122P,-0.0919
A170Y,8.85
D96W,25.8
E151T,93.4
V76F,18.8
Q7I,99.9
V76M,73.3
V44L,95.8
R32E,99
A158Y,2.94

# Sample 4 — target: BATF, bZIP domain (human); technique: DHFR protein complementation; medium: yeast; relative to: wild-type JUN-FOS pair; direction: higher = stronger binding
# Setting: single substitutions, most at no-binding floor
# Starting sequence: JUN, bZIP domain (human); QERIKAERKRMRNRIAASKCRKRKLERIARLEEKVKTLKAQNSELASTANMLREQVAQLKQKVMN; partner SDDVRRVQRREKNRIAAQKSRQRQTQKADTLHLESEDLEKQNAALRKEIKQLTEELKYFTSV
Substitution,binding fitness
A29L,-0.18 natural log
L38W,-0.756 natural log
L52P,-1.17 natural log
A57V,-0.107 natural log
V35G,-0.846 natural log
L59V,0.0703 natural log
A49E,-0.542 natural log
E33S,-0.126 natural log
L59G,-0.327 natural log
E32G,-0.22 natural log
L38K,-0.599 natural log
E44F,-0.146 natural log
S43R,0.101 natural log
T48Q,0.0419 natural log
R30E,0.145 natural log
Q55P,-1.06 natural log
Q41A,-0.0776 natural log
A29K,-0.143 natural log
L31E,0.0671 natural log
A49Y,-0.234 natural log

# Sample 5 — target: CRIPT, C-terminal peptide; technique: DHFR complementation, deep sequencing; medium: yeast; relative to: wild type; direction: higher = weaker binding
# Setting: single substitutions, model-inferred values
# Starting sequence: ERBIN, PDZ domain 1 (human); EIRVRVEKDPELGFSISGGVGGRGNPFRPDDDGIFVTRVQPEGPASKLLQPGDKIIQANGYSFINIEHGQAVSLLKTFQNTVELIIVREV; partner TKNYKQTSV
Substitution,binding free energy change [kcal/mol]
S15W,0.197
L74E,0.287
I85D,-0.0415
I85A,-0.000269
Q70E,-0.0624
L84V,0.144
N65D,-0.0456
F78R,0.462
I66C,0.171
V20M,-0.213
V82K,1.63
D32Y,0.616
A45S,-0.634
I85M,-0.0194
F14K,0.453

# Single results of other studies
Substance,target,test,test system,conditions,how to read,endpoint,value
"PhoQ, residues 284 288 289 292 302 303 SASVAL","PhoP, residues 12 14 15 18 19 NQAHL (Escherichia coli, UniProt P23836)","Sort-seq, measured: YFP reporter",E. coli,"PhoQ-PhoP variant library, added: 10 µM Mg2+","relative to: high Mg2+ state, higher = stronger signaling",fold induction,0.552

# Repeated from above (sample 5):
Substitution,binding free energy change [kcal/mol]
I85A,-0.000269
Q70E,-0.0624
L84V,0.144
N65D,-0.0456
F78R,0.462
I66C,0.171
V20M,-0.213
V82K,1.63
D32Y,0.616
